Experimental data gathered from unrelated publications.
Parts stem from different laboratories: compare values within a part only. “And” joins repeats or separate records; there may be more than shown.

Study 1
Compound: COc1cc(C(=O)OCCCN2CCCN(CCCOC(=O)c3cc(OC)c(OC)c(OCc4ccc([N+](=O)[O-])cc4)c3)CC2)cc(OC)c1OC
Species: mice, male and female, formalin pain
Route: intrathecal
Added: formalin 5%, 20 µL intraplantar
Reading: higher = more pain
dose	time	licking and flinching time
100 nmol	20-25 min after formalin	26.3 a.u. and 36.2 a.u. and 17.6 a.u. and 99.5 a.u. and 3.38 a.u. and 112 a.u. and 10.3 a.u. and 4.33 a.u.
10 nmol	35-40 min after formalin	16.1 a.u. and 18 a.u. and 0.94 a.u. and 3.47 a.u. and 5.11 a.u. and 6.87 a.u. and 14.4 a.u. and 71.5 a.u.
100 nmol	10-15 min after formalin	9.49 a.u. and 4.33 a.u. and 7.9 a.u. and 21.4 a.u. and 22.3 a.u. and 6.69 a.u. and 17.1 a.u. and 36.2 a.u.
10 nmol	0-10 min	253 a.u. and 237 a.u. and 189 a.u. and 182 a.u. and 179 a.u. and 229 a.u. and 228 a.u. and 260 a.u.
100 nmol	30-35 min after formalin	20.9 a.u. and 8.67 a.u. and 4.76 a.u. and 39.1 a.u. and 7.67 a.u. and 14 a.u. and 100 a.u. and 2.2 a.u.
1 nmol	30-35 min after formalin	85.8 a.u. and 10 a.u. and 31.2 a.u. and 26.5 a.u. and 3.66 a.u. and 44.4 a.u. and 36.6 a.u. and 85.4 a.u.

Study 2
Cell line: HCC1569
Method: in-cell western
Measured: CDK1 phospho-Thr14
Concentration: 3333.33 nM
SMILES	pCDK1 (Thr14) level
Cc1ccc(O)c(C)c1-c1cnc2[nH]c(-c3cnc(N4CCC5(CC4)CC(CN4CCN(c6ccc(NC7CCC(=O)NC7=O)cc6F)CC4)C5)nc3)cc2c1C#N (centres unmarked)	149 RLU and 136 RLU
Cc1ncc(-c2cc3c(C(N)=O)c(-c4c(C)ccc(O)c4C)cnc3[nH]2)cn1	29.5 RLU and 33.5 RLU
Cc1ccc(O)c(C)c1-c1cnc2[nH]c(-c3cnc(N)nc3)cc2c1C#N	71.8% and 75.2%
Cc1ccc(O)c(C)c1-c1cnc2[nH]c(-c3cnc(N4CCC(CCN5CCN(c6ccc(N7CCC(=O)NC7=O)cc6F)CC5)CC4)nc3)cc2c1C#N	102 RLU
Cc1ncc(-c2cc3c(N)c(-c4c(C)ccc(O)c4C)cnc3[nH]2)cn1	28.6 RLU and 22.5 RLU
Cc1ccc(O)c(C)c1-c1cnc2[nH]c(-c3cnc(N4CCC(CN5CCN(c6ccc7c(c6F)CN(C6CCC(=O)NC6=O)C7=O)CC5)CC4)nc3)cc2c1C#N (centres unmarked)	146 RLU and 141 RLU
Cc1ccc(O)c(C)c1-c1cnc2[nH]c(-c3cnc(N4CCC(CN5CCN(c6ccc7c(c6)CN(C6CCC(=O)NC6=O)C7=O)CC5)CC4)nc3)cc2c1C#N (centres unmarked)	103 RLU
Cc1ncc(-c2cc3c(Cl)c(-c4c(C)ccc(O)c4C)cnc3[nH]2)cn1	66.4 RLU and 65.1 RLU

Study 3
Compound: Cc1ncsc1-c1ccc(C2(NC(=O)C3CC(O)CN3C(=O)C(NC(=O)c3ccc(COc4c(-c5c(C)c(F)cc6[nH]ncc56)c(C5CC5)cc5c(N6CC7CC6CN7)nc(OC6CCOCC6)nc45)cc3)C(C)(C)C)CC2)cc1 (centres unmarked)
Cell line: AsPC-1
Method: in-cell ELISA
concentration	setting	phospho-ERK1/2 level
300 nM	individual replicates	65.2% and 56.3% and 63.9% and 97.5% and 66.4% and 56.7%
1 nM	individual replicates	100% and 94.8% and 96.3% and 103% and 98.5%
10 µM	per-experiment values	13.3% and 15.2% and 10.1%
300 pM	per-experiment values	92.4% and 100% and 103%
100 nM	per-experiment values	86.4% and 98.9% and 83.8%
10 nM	individual replicates	109% and 88.8% and 104% and 101%

Study 4
Compound: O=C(O)C1(O)Oc2cc(Cl)ccc2N(Cc2ccccc2)C1=O (centres unmarked)
Organism: Arabidopsis thaliana
Strain: Col-0
concentration	setting	hypocotyl length
6.25 µg/mL	seed germination, repetition mean	2.06 cm
25 µg/mL	seed germination, repetition mean	1.65 cm
3.125 µg/mL	seed germination, repetition mean	2.1 cm
12.5 µg/mL	seed germination, repetition mean	2.02 cm
100 µg/mL	seed germination, repetition mean	1.23 cm
6.25 µg/mL	seed germination, single repetition	2.04 cm and 2.08 cm and 2.06 cm and 2.05 cm
3.125 µg/mL	seed germination, single repetition	2.07 cm and 2.12 cm and 2.08 cm
100 µg/mL	seed germination, single repetition	1.26 cm and 1.23 cm and 1.25 cm and 1.22 cm
25 µg/mL	seed germination, single repetition	1.67 cm and 1.7 cm and 1.63 cm and 1.6 cm and 1.62 cm

Excerpt of the above (study 4):
concentration	setting	hypocotyl length
25 µg/mL	seed germination, single repetition	1.67 cm and 1.7 cm and 1.63 cm and 1.6 cm and 1.62 cm
12.5 µg/mL	seed germination, repetition mean	2.02 cm
3.125 µg/mL	seed germination, repetition mean	2.1 cm
